{"data": "Assay results of several laboratories", "note": "Every numbered part comes from another study and shows a few of its results, in no order. “And” joins repeats or separate records; there may be more than shown. Changes are numbered by the printed parent chain.", "UniProt P9WI81, sequence (whole entry, looked up)": "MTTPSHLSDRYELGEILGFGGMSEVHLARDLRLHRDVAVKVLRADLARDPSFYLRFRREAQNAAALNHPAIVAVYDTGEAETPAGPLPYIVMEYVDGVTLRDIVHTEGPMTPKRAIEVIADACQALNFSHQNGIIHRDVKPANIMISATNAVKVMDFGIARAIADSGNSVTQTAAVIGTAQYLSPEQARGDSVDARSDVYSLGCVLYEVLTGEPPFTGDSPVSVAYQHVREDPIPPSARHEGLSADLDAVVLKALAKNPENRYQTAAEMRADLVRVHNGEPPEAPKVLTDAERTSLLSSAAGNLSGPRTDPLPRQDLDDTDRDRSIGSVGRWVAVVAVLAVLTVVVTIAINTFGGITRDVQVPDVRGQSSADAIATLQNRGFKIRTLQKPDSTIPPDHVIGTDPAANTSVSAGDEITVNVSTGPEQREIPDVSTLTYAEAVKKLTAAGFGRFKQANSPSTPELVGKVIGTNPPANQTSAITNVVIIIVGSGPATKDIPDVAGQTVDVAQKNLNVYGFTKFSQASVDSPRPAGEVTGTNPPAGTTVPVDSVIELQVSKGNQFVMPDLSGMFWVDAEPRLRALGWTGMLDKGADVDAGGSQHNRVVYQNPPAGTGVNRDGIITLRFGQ", "UniProt P28223, sequence (whole entry, looked up)": "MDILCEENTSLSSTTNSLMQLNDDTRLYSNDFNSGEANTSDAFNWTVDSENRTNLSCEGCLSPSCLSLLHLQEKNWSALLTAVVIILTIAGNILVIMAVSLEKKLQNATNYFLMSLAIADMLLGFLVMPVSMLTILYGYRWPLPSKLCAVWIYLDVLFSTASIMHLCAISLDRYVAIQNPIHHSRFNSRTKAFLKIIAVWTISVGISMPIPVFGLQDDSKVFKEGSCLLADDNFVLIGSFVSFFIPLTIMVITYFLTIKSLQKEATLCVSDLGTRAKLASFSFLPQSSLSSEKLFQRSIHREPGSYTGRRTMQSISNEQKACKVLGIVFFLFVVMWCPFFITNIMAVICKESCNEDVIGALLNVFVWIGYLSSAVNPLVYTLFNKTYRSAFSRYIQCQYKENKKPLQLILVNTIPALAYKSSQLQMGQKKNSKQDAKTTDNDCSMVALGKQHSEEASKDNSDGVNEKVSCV", "UniProt Q9UQM7, sequence (whole entry, looked up)": "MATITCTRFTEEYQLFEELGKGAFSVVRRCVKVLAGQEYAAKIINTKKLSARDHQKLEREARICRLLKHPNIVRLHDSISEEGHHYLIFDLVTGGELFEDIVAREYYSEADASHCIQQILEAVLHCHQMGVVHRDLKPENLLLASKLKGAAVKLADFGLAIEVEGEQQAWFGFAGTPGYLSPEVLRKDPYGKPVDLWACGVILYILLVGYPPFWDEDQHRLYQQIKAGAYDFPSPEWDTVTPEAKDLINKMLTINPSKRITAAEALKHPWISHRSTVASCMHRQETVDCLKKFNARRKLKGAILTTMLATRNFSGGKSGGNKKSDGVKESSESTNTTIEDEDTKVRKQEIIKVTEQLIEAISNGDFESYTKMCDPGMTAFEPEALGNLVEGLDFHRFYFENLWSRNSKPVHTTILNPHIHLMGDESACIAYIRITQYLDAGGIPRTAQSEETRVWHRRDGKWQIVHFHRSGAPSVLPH", "UniProt O75417, sequence (whole entry, unmodified, looked up)": "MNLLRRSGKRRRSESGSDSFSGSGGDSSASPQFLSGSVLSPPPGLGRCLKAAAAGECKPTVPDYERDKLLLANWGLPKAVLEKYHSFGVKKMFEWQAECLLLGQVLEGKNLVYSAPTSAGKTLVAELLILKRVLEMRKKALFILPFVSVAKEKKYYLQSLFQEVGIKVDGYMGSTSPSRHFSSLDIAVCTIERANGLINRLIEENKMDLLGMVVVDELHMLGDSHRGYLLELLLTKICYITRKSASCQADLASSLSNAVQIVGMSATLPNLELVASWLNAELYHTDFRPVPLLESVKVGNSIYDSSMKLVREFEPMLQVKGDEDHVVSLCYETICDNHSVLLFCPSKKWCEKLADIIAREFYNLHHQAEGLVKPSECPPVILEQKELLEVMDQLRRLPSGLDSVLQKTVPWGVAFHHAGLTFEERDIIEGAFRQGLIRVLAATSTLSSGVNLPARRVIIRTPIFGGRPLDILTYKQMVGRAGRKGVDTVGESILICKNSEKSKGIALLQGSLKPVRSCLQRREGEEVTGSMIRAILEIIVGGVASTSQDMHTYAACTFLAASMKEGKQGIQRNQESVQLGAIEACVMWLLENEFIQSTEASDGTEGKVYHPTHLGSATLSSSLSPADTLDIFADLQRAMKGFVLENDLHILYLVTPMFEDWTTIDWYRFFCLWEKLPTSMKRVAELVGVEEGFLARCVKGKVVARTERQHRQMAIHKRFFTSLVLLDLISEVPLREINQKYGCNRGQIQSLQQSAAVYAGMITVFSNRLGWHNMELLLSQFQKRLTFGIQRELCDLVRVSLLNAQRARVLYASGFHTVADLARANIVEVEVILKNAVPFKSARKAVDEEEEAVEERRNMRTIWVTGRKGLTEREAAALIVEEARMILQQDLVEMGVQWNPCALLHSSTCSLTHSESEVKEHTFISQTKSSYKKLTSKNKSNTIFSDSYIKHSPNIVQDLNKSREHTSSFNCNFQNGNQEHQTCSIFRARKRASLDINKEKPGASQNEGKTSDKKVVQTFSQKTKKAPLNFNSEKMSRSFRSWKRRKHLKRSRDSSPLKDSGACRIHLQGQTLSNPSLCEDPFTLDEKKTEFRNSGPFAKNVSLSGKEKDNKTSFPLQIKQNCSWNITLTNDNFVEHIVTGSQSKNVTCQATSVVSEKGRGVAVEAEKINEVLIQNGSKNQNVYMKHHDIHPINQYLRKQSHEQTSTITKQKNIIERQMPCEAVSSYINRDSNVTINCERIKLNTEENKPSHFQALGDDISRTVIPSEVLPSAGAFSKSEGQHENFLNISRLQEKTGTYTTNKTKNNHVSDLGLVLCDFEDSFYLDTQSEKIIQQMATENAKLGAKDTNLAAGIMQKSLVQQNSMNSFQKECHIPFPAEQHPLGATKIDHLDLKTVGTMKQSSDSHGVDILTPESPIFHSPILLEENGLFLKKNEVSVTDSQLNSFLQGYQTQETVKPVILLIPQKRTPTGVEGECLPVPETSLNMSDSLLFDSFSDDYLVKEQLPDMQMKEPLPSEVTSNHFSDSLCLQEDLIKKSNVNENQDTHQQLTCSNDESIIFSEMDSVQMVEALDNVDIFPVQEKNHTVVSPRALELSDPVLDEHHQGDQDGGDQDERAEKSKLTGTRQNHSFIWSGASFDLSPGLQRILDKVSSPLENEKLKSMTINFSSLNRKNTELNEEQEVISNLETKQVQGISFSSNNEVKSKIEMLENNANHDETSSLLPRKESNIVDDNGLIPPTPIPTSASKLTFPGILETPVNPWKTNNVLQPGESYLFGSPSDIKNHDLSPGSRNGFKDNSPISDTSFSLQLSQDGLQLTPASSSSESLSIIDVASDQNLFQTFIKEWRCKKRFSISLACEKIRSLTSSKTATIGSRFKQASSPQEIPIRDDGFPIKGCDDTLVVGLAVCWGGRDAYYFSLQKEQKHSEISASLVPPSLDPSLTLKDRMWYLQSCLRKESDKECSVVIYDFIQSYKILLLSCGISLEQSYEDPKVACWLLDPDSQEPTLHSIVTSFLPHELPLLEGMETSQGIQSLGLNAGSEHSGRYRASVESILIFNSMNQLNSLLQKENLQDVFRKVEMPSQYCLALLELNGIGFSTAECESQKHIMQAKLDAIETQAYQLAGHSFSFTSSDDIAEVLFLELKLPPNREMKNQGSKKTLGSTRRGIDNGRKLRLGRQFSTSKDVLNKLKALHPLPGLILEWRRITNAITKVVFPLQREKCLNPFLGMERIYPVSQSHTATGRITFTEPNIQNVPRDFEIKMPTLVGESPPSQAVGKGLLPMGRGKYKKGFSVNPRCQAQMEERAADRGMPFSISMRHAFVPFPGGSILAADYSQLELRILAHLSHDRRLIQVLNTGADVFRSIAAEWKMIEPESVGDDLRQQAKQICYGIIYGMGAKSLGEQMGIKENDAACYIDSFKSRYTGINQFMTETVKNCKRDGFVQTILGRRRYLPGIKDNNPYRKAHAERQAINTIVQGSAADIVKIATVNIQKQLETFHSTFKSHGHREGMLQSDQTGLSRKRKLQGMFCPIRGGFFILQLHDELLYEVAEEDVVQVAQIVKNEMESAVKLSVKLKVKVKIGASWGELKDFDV"}
{"data": "Sample 1", "Structure (SMILES)": "CC(C)S(=O)(=O)c1ccc2nccc(Nc3ccc4sc(C5CCCC5)nc4c3)c2c1.Cl"}
{"cell line": "L929 RIPK3 knockout", "tested at": "1.563 µM", "viability": "102% and 101% and 106% and 96%"}
{"cell line": "L929", "method": "CCK-8", "tested at": "6.25 µM", "added": "zVAD", "viability": "108% and 106% and 99.5% and 102%"}
{"cell line": "L929 RIPK3 knockout", "tested at": "0.391 µM", "viability": "97.7% and 103% and 113% and 106% and 107%"}
{"cell line": "L929", "method": "CCK-8", "tested at": "25 µM", "added": "zVAD", "viability": "89% and 89.7% and 88.5%"}
{"cell line": "L929 RIPK3 knockout", "tested at": "25 µM", "added": "zVAD", "viability": "90.1% and 92.5% and 90.8% and 96% and 91.1%"}
{"cell line": "L929", "method": "CCK-8", "tested at": "1.563 µM", "viability": "98.9% and 97.6% and 104% and 100%"}
{"cell line": "L929", "method": "CCK-8", "tested at": "6.25 µM", "viability": "110% and 106% and 102% and 101% and 111%"}
{"cell line": "L929 RIPK3 knockout", "tested at": "12.5 µM", "viability": "103% and 104% and 98.9%"}
{"cell line": "L929 RIPK3 knockout", "tested at": "25 µM", "viability": "84.4% and 90.3% and 93% and 88.8% and 102%"}
{"cell line": "L929 RIPK3 knockout", "tested at": "0.391 µM", "added": "zVAD", "viability": "101% and 103% and 110% and 109% and 104% and 108%"}
{"data": "Sample 2", "target": "Serine/threonine-protein kinase 33 (STK33, Homo sapiens, UniProt Q9BYT3)", "effect on": "enzyme activity", "action": "inhibitor", "method": "radiometric", "tested at": "0.5 µM", "UniProt Q9BYT3, sequence (whole entry, looked up)": "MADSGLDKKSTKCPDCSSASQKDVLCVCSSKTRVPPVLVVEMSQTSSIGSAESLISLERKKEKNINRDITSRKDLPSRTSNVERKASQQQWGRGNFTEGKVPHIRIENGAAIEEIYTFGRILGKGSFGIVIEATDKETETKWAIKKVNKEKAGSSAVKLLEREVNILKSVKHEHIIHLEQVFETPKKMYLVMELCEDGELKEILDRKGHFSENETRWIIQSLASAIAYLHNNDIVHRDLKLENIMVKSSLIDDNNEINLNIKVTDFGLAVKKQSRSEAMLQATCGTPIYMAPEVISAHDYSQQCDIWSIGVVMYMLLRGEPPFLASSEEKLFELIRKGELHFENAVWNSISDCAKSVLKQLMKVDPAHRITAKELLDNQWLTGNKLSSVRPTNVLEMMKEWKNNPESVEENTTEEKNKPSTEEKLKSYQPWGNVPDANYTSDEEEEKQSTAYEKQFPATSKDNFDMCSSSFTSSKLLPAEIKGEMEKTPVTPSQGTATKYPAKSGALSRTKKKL"}
{"Compound": "O=C(c1cc2cc(O)ccc2[nH]1)c1cc2cc(O)ccc2[nH]1", "remaining activity": "77.5%"}
{"Compound": "Cc1cc(Nc2cc(N3CCN(C)CC3)nc(Sc3ccc(NC(=O)C4CC4)cc3)n2)[nH]n1", "remaining activity": "90.1%"}
{"Compound": "O=C1NC(=O)c2c1c1c3ccccc3[nH]c1c1[nH]c3cc(Br)ccc3c21", "remaining activity": "71.9%"}
{"data": "Sample 3", "target": "CCNB2, cyclin fold, Cln2 fusion (human)", "method": "yeast growth competition, sequencing", "sample": "yeast", "notes": "weak parent motif", "baseline": "not given", "direction": "higher = stronger binding", "parent": "viral docking peptide; KGVKRKLFAEDSS"}
{"Substitution": "KGVKRKLNAEDSS [F8N]", "normalised enrichment score": 0.174}
{"Substitution": "KGVKRKLFHEDSS [A9H]", "normalised enrichment score": 0.918}
{"Substitution": "KGVKEKLFAEDSS [R5E]", "normalised enrichment score": 0.25}
{"Substitution": "KGVKRELFAEDSS [K6E]", "normalised enrichment score": 0.626}
{"Substitution": "KGVKRKLFPEDSS [A9P]", "normalised enrichment score": 0.373}
{"Substitution": "KGVIRKLFAEDSS [K4I]", "normalised enrichment score": 0.777}
{"Substitution": "KPVKRKLFAEDSS [G2P]", "normalised enrichment score": 1.16}
{"Substitution": "KGVKRALFAEDSS [K6A]", "normalised enrichment score": 0.614}
{"data": "Other studies, line by line"}
{"Molecule": "O=C([C@H]1C[C@H](O)CN1c1ccc(Cl)cc1)N1CC2COCC(C1)N2Cc1ccc(Cl)cc1", "target": "5-hydroxytryptamine receptor 2A (HTR2A, Homo sapiens, UniProt P28223)", "test": "binding, radioligand binding", "conditions": "10 µM", "quantity": "inhibition", "result": "7.31%"}
{"Molecule": "C[C@]12CC[C@@H](O)C[C@@H]1CC[C@@H]1[C@@H]2CC[C@]2(C)C(=O)CC[C@@H]12", "target": "Calcium/calmodulin-dependent protein kinase type II subunit alpha (CAMK2A, Homo sapiens, UniProt Q9UQM7)", "test": "enzyme activity, inhibitor", "conditions": "10 µM", "quantity": "inhibition", "result": "-38%"}
{"Molecule": "merbromin", "target": "DNA polymerase theta, ATPase domain (POLQ, Homo sapiens, UniProt O75417)", "test": "ATPase activity, inhibitor, ADP-Glo", "conditions": "77 µM, replicate A", "how to read": "direction not given", "quantity": "Z-score", "result": -6.49}
{"Molecule": "CCCCN(CCCC)C(=O)CN1C[C@H](c2cc(OC)c3c(c2)OCO3)[C@@H](C(=O)O)[C@@H]1CC(C)(C)CCC", "target": "Serine/threonine-protein kinase PknB (pknB, Mycobacterium tuberculosis, UniProt P9WI81)", "test": "cell-free assay, competition with immobilised ligand", "conditions": "1 µM", "quantity": "remaining binding", "result": "85%"}
{"note": "Excerpt of the above (sample 3):"}
{"Substitution": "KGVKRKLFPEDSS [A9P]", "normalised enrichment score": 0.373}
{"Substitution": "KGVIRKLFAEDSS [K4I]", "normalised enrichment score": 0.777}
{"Substitution": "KPVKRKLFAEDSS [G2P]", "normalised enrichment score": 1.16}
{"Substitution": "KGVKRALFAEDSS [K6A]", "normalised enrichment score": 0.614}
